Results pooled from the literature.
Lines come from different studies, so protocols differ. Numbers after ± are the reported error.
Tumor necrosis factor receptor superfamily member 9/Nectin-4: Tumor necrosis factor receptor superfamily member 9/Nectin-4 (Homo sapiens, UniProt Q07011+Q96NY8)
UniProt Q07011, sequence (whole entry, looked up): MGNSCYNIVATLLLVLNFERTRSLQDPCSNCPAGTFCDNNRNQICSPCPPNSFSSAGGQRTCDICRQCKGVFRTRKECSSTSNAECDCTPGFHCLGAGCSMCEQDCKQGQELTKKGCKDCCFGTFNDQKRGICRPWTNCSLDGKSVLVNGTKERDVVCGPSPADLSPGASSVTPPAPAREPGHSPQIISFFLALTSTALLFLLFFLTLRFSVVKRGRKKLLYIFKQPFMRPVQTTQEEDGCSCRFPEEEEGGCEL
UniProt Q96NY8, sequence (whole entry, looked up): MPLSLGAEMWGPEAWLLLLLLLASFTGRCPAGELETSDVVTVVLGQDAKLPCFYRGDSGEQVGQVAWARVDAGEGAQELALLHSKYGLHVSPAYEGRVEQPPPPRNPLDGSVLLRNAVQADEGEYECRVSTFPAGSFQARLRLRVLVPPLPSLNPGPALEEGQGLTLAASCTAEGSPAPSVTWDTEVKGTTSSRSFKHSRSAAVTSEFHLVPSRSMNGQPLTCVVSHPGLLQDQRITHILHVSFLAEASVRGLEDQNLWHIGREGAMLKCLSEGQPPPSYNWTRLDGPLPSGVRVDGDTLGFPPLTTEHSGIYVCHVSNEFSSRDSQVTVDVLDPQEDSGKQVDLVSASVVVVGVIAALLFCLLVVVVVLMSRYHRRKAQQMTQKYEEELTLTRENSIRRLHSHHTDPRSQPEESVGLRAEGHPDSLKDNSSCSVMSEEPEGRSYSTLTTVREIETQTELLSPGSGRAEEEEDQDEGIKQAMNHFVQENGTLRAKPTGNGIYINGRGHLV
CA9: Carbonic anhydrase 9 (CA9, Homo sapiens, UniProt Q16790)
Gria1: Glutamate receptor 1 (Gria1, Rattus norvegicus, UniProt P19490)
UniProt P19490, sequence (whole entry, looked up): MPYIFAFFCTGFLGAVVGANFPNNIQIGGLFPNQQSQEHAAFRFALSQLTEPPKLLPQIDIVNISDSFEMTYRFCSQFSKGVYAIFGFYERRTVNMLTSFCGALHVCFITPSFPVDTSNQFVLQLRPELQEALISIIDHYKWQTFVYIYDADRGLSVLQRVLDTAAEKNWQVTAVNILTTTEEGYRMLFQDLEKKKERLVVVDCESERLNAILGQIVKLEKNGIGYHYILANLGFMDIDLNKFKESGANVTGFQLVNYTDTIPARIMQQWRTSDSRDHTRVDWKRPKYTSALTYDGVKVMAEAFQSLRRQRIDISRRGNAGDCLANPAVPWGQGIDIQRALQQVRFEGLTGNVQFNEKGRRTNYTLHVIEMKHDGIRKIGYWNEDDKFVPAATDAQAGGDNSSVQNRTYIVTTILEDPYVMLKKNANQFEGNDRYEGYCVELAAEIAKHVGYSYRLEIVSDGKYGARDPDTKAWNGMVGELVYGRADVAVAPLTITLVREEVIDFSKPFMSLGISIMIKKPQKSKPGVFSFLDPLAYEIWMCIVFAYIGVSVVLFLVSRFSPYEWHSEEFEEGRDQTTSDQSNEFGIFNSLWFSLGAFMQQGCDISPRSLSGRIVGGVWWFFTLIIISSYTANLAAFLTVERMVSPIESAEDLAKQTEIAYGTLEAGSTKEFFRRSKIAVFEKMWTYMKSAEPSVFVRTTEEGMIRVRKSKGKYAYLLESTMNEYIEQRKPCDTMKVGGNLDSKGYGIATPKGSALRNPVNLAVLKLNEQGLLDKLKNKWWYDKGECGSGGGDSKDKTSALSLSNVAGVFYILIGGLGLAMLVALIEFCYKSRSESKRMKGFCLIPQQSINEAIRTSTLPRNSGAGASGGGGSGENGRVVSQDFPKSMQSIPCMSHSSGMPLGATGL
UniProt P50613, sequence (whole entry, looked up): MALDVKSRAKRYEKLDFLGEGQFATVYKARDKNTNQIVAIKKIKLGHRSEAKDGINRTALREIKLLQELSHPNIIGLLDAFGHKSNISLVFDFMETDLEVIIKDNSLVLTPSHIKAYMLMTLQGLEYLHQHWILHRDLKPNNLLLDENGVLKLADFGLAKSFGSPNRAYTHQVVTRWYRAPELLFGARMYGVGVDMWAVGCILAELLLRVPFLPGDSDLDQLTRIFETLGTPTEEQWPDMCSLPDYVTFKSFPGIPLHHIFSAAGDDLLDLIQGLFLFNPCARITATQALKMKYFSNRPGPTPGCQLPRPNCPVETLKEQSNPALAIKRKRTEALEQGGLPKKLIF
UniProt Q5U3Y7, sequence (whole entry, looked up): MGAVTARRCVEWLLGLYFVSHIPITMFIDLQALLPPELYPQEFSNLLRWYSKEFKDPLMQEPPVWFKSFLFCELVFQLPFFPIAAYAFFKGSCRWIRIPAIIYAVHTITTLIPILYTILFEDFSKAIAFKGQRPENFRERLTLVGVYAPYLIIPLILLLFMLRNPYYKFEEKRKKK
UniProt P49327, sequence (whole entry, looked up): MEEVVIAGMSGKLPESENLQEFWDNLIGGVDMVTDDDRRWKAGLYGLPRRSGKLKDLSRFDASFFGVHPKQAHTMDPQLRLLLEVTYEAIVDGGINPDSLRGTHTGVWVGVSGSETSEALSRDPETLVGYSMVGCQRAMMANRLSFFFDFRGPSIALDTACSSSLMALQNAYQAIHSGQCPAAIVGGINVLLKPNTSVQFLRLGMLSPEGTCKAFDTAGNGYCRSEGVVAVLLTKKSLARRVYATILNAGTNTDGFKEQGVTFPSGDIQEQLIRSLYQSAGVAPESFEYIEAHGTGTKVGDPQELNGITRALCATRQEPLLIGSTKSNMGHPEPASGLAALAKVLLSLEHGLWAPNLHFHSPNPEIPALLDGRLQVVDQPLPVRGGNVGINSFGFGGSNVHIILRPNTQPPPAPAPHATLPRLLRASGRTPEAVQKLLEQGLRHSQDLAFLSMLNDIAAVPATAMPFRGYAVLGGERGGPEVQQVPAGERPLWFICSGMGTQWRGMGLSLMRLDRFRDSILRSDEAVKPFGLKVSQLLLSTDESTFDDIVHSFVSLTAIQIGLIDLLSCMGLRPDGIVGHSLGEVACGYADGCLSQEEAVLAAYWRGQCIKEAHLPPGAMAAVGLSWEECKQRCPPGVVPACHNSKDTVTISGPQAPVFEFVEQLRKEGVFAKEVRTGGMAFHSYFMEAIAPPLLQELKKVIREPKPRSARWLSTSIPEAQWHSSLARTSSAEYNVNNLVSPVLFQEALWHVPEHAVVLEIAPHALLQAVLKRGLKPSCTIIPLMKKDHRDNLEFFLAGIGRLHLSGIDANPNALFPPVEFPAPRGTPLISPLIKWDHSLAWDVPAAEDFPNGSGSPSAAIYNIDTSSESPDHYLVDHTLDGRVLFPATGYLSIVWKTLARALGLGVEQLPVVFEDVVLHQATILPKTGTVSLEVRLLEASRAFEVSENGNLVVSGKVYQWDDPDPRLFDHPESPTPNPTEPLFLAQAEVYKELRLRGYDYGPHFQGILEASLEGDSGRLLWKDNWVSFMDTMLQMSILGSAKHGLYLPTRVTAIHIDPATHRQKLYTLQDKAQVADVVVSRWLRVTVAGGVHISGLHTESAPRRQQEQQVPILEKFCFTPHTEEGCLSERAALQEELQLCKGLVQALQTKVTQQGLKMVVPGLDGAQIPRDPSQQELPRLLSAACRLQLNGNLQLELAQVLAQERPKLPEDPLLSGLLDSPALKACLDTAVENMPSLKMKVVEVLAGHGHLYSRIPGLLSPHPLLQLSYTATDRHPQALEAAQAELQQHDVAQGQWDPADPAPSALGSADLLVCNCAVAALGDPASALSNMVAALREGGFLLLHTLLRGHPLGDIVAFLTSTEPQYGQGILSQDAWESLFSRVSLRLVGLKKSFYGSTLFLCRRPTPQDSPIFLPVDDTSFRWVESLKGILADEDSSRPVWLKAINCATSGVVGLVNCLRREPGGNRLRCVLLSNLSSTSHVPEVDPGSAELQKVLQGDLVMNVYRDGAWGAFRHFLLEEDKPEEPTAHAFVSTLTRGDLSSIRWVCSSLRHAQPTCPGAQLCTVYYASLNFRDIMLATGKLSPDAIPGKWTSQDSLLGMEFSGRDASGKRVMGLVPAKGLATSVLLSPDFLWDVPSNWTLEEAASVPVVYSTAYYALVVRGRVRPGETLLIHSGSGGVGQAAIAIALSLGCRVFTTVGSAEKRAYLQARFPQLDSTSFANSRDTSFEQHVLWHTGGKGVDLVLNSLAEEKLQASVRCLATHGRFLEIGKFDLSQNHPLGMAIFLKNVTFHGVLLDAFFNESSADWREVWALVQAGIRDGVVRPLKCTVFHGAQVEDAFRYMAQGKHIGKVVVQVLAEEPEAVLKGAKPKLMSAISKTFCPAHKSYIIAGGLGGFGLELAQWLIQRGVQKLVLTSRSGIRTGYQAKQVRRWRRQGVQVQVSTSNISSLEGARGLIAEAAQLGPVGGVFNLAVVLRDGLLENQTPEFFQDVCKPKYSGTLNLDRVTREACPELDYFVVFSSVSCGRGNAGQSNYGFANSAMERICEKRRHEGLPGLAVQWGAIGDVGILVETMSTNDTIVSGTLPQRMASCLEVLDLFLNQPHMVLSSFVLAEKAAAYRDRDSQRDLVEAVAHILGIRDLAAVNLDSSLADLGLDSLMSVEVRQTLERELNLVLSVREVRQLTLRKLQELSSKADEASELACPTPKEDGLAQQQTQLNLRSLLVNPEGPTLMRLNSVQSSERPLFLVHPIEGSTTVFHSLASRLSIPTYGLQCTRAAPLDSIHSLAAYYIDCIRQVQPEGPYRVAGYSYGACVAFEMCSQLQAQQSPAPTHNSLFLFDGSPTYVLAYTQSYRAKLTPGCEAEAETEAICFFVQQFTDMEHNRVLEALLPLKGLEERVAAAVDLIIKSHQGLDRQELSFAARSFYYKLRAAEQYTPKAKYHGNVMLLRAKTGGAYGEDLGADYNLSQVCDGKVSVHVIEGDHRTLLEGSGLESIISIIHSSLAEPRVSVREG
UniProt P32300, sequence (whole entry, looked up): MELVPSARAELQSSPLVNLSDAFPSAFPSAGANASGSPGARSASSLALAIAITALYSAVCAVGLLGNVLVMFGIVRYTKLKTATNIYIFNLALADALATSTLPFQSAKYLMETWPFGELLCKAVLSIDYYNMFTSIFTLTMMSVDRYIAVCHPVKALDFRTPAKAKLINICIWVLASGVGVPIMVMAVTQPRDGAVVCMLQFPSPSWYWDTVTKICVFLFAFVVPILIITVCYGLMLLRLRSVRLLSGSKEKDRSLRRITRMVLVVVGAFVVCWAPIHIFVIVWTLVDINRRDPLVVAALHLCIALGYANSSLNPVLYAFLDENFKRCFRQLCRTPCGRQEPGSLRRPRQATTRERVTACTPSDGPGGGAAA

Compound	tested on	test	system	conditions	scale	quantity	value
COc1cc(Nc2ncc(F)c(Nc3ccc4c(n3)NC(=O)C(C)(C)O4)n2)cc(OC)c1OC	AVPR2 (Homo sapiens, UniProt P30518)	–	–	–	–	IC50	> 10000 nM
Cc1cc(O)cc(C)c1C[C@H](C)C(=O)N[C@@H]1CCCCC[C@@H](C(N)=O)NC(=O)[C@H](Cc2ccccc2)NC(=O)[C@H](Cc2ccccc2)NC1=O	Oprd1 (Mus musculus, UniProt P32300)	delta opioid receptor signalling, antagonist	mouse vas deferens	added: DPDPE	–	Kb	147 ± 36 nM
COCC1OC2CC(CC(N)C(=O)O)(C(=O)O)OC2C(O)C1O (stereo not drawn)	Gria2 (Rattus norvegicus, UniProt P19491)	[3H]AMPA displacement	HEK-293T/17 membranes	–	–	Ki	> 10000 nM
C[C@@H](O)[C@@H](CO)NC(=O)[C@@H](CCCNC(=N)N)NC(=O)[C@@H]1CCCN1C(=O)[C@@H]1CSSC[C@H](NC(=O)[C@H](Cc2ccccc2)NC(=O)CN2CCN(CC(=O)O)CCN(CC(=O)O)CCN(CC(=O)O)CC2)C(=O)N[C@@H](Cc2ccc(O)cc2)C(=O)N[C@@H](Cc2ccccc2)C(=O)N[C@@H](CCC(N)=O)C(=O)N[C@@H](CC(N)=O)C(=O)N1 [gallium-68 labelled]	–	–	healthy Wistar rat, lungs	intravenous, 8 MBq, 120 min, individual animals	–	tissue uptake	0.08 %ID/g
O=C(c1ccc(Cl)cc1)N1CCN2C(=O)N(OC(=O)N3CCOc4ccccc43)C(=O)C2C1 (stereo not drawn)	Fatty acid synthase (FASN, Homo sapiens, UniProt P49327)	MS-based ABPP	SW-620 conditioned medium	10 µM, 1 h, 37 °C	relative to: compound over DMSO, lower = more inhibition	median protein ratio	0.98
C[C@H]1CN(c2n[nH]c3nc(N[C@H]4CC[C@H](NS(=O)(=O)CCC(F)(F)F)CC4)ncc23)CCO1	CDK7 (Homo sapiens, UniProt P50613)	competitor, Kinobeads competition	HEK293, K562, placenta extract	–	–	IC50	2400 nM
COc1cc2c(Oc3ccc4[nH]c(C)cc4c3F)ccnc2cc1OCC1(N)CC1	–	–	paediatric recurrent refractory sarcoma	8 mg/kg	–	grade 3 Dizzy	0%
CCCC[C@@H]1NC(=O)[C@H](Cc2ccc(O)cc2)NC(=O)[C@H](C)N(C)C(=O)[C@H](CC(=O)O)NC(=O)[C@H](C)NC(=O)[C@H](Cc2ccccc2)NC(=O)[C@@H]2CSCCC(=O)N3CN(CN(C3)C(=O)CCSC[C@H](NC(C)=O)C(=O)N[C@@H](CC(C)(C)C)C(=O)N3CCC[C@H]3C(=O)N[C@@H](CCC(=O)O)C(=O)N[C@H](CCCCNC(=O)CCc3cn(CCOCCOCCOCCOCCOCCC(=O)N[C@H]4CSCCC(=O)N5CN6CN(C5)C(=O)CCSC[C@H](NC(=O)[C@@H](CC(=O)O)NC(=O)[C@H](Cc5cccc7ccccc57)NC(=O)[C@@H]5CCCN5C4=O)C(=O)N[C@@H](CCSC)C(=O)N[C@@H](CCCCNC(=N)N)C(=O)N[C@@H](CC(=O)O)C(=O)N[C@@H](Cc4c[nH]c5ccccc45)C(=O)N[C@@H](CO)C(=O)N[C@@H]([C@@H](C)O)C(=O)N4CCC[C@H]4C(=O)N4C[C@H](O)C[C@H]4C(=O)N[C@@H](Cc4c[nH]c5ccccc45)C(=O)N[C@H](C(N)=O)CSCCC6=O)nn3)C(=O)N3CCC[C@H]3C(=O)N[C@@H](Cc3ccc(O)cc3)C(=O)N2)C(=O)CCSC[C@@H](C(N)=O)NC1=O	Tumor necrosis factor receptor superfamily member 9/Nectin-4	reporter gene, agonist	HT-1376 coculture with reporter cells	–	–	EC50	6.48 nM
Cc1cccc(C)c1N1C(=O)[C@H](CO)NC2(CCN(C)CC2)C1=O	Tmem97 (Rattus norvegicus, UniProt Q5U3Y7)	–	–	–	–	Ki	> 10000 nM
O=C(Nc1ccc(Br)cc1)Nc1ccc2c(c1)C=CCP(=O)(O)O2	CA9	–	–	–	–	Ki	36.8 nM
CCCC[C@@H]1NC(=O)[C@H](Cc2ccc(O)cc2)NC(=O)[C@@H]2CCCN2C(=O)[C@H](CC(=O)O)NC(=O)[C@H](C)NC(=O)[C@H](Cc2ccccc2)NC(=O)[C@@H]2CSCCC(=O)N3CN(CN(C3)C(=O)CCSC[C@@H](C(=O)N[C@@H](C)C(N)=O)NC1=O)C(=O)CCSC[C@H](NC(=O)[C@H](C)NC(C)=O)C(=O)N[C@@H]([C@@H](C)CC)C(=O)N[C@@H](CCC(=O)O)C(=O)N[C@@H](CCC(=O)O)C(=O)N[C@H](CCCCNC(=O)CCc1cn(CCOCCOCCOCCOCCOCCC(=O)N[C@H]3CSCCC(=O)N4CN5CN(C4)C(=O)CCSC[C@H](NC(=O)[C@@H](CC(=O)O)NC(=O)[C@H](Cc4cccc6ccccc46)NC(=O)[C@@H]4CCCN4C3=O)C(=O)N[C@@H](CCSC)C(=O)N[C@@H](CCCCNC(=N)N)C(=O)N[C@@H](CC(=O)O)C(=O)N[C@@H](Cc3c[nH]c4ccccc34)C(=O)N[C@@H](CO)C(=O)N[C@@H]([C@@H](C)O)C(=O)N3CCC[C@H]3C(=O)N3C[C@H](O)C[C@H]3C(=O)N[C@@H](Cc3c[nH]c4ccccc34)C(=O)N[C@H](C(N)=O)CSCCC5=O)nn1)C(=O)N[C@@H](CCC(N)=O)C(=O)N[C@@H](Cc1ccc(O)cc1)C(=O)N2	Tumor necrosis factor receptor superfamily member 9/Nectin-4	reporter gene, agonist	HT-1376 coculture with reporter cells	–	–	EC50	2.42 nM
O=C(Nc1cccc(F)c1)Nc1ccc2c(c1)C=CCP(=O)(O)O2	CA9	–	–	–	–	Ki	51.8 nM
CC[C@H](C)[C@@H]1NC(=O)[C@@H]2CCCN2C(=O)[C@H](CC(C)C)NC(=O)[C@H](CC(C)C)NC(=O)CNC(=O)[C@@H](NC(=O)[C@@H](NC(=O)[C@H](CC(=O)O)NC(=O)CNC(=O)[C@@H](NC(=O)[C@H](C)NC(=O)CNC(=O)[C@H](CCCCN)NC(=O)[C@H](CC(C)C)NC(=O)[C@H](CC(C)C)NC(=O)[C@H](CCCCN)NC(=O)CNC(=O)[C@@H](NC(=O)[C@@H](N)CC(C)C)C(C)C)C(C)C)C(C)C)CSSC[C@@H](C(=O)O)NC1=O	–	RNA-seq, measured: Cdh8	mouse, traumatic brain injury model, frontal cortex and hippocampus	dose not given	relative to: TBI alone	log2 fold change	0.687
NC(CC1(C(=O)O)CC2OC(CO)C(O)C(O)C2O1)C(=O)O (stereo not drawn)	Gria1	[3H]AMPA displacement	HEK-293T/17 membranes	–	–	Ki	> 10000 nM
C[C@@H]1N/C(=C\[N+](=O)[O-])N(Cc2ccc(Cl)nc2)[C@@H]1C	–	radioligand binding	Musca domestica head membranes	added: [3H]imidacloprid	–	Ki	0.394 ± 0.179 nM
NC(CC1(C(=O)O)CC2OC(CO)C(O)C(N)C2O1)C(=O)O (stereo not drawn)	Gria1	[3H]AMPA displacement	HEK-293T/17 membranes	–	–	Ki	> 10000 nM
CC[C@H](C)[C@H](NC(=O)[C@H](Cc1ccccc1)NC(=O)[C@H](CCC(=O)O)NC(=O)[C@H](CCCNC(=N)N)NC(=O)[C@H](C)NC(=O)[C@H](C)NC(=O)[C@H](CCC(N)=O)NC(=O)[C@H](CCC(=O)O)NC(=O)[C@H](CCC(=O)O)NC(=O)[C@H](CC(C)C)NC(=O)[C@H](Cc1ccc(O)cc1)NC(=O)[C@H](CO)NC(=O)[C@H](CO)NC(=O)[C@@H](NC(=O)[C@H](CC(=O)O)NC(=O)[C@H](CO)NC(=O)[C@@H](NC(=O)[C@H](Cc1ccccc1)NC(=O)[C@@H](NC(=O)CNC(=O)[C@H](CCC(=O)O)NC(=O)[C@H](C)NC(=O)CCc1c[nH]cn1)[C@@H](C)O)[C@@H](C)O)C(C)C)C(=O)N[C@@H](C)C(=O)N[C@@H](Cc1c[nH]c2ccccc12)C(=O)N[C@@H](CC(C)C)C(=O)N[C@H](C(=O)N[C@@H](CCCNC(=N)N)C(=O)NCC(=O)N[C@@H](CCCNC(=N)N)C(=O)N[C@@H](CCCCNC(=O)COCCOCCNC(=O)COCCOCCNC(=O)CC[C@H](NC(=O)CCCCCCCCCCCCCCCCC(=O)O)C(=O)O)C(=O)NCC(=O)NCC(=O)N[C@@H](CO)C(=O)N[C@@H](CCCCNc1c(NCCCCCN(O)C(=O)CCC(=O)NCCCCCN(O)C(=O)CCC(=O)NCCCCCN(O)C(C)=O)c(=O)c1=O)C(=O)O)C(C)C [zirconium-89 labelled]	–	–	rat, blood	sc, 3 nmol/kg, 72 h, ex vivo	–	tissue uptake	0.04 %ID/g
O=C(Nc1ccc2c(c1)C=CCP(=O)(O)O2)c1ccc(I)cc1	CA9	–	–	–	–	Ki	18.7 nM

A few entries again:
Compound	tested on	test	system	conditions	scale	quantity	value
COc1cc(Nc2ncc(F)c(Nc3ccc4c(n3)NC(=O)C(C)(C)O4)n2)cc(OC)c1OC	AVPR2 (Homo sapiens, UniProt P30518)	–	–	–	–	IC50	> 10000 nM
